Measured values from different studies.
Each numbered part is a random draw from the data of one study; scales do not carry over between parts.

Series 1
Target: Fragile X messenger ribonucleoprotein 1, C-terminal low-complexity region (Fmr1, Mus musculus, UniProt P35922)
Technique: RNA Bind-n-Seq
Molecule type: RNA
Matrix: in vitro
Concentration: 200 nM
Notes: whole 134-nt RNA, ends assumed
Added: 150 mM KCl
Reference: input library
Direction: higher = stronger binding
Measurement: log2 enrichment
All sequences stand within: GGGAGUUCUACAGUCCGACGAUC … UGGAAUUCUCGGGUGUCAAGG
Oligonucleotide = UCAGUGUCUUACCCUGAAGAGAAAGUUGUAGGUUGGCUGUUGAAAUUCAUUCCUUAGAUAUGAUCAGUUUGAUUGCCCGGCUUUAUUGCC; value = -1.59
Oligonucleotide = UCCUGUGCUACACAUCGUAUGUACCGAAUCGGAAAAAAGGGAAAAAAGGAAAAAAGGGGAAAGUAUUAUGUUACGCCGUUCGGAUCUGCA; value = -0.667
Oligonucleotide = UGGGAGGUGGAUUUUGUUUAUUUUUUUAGCUCAUUUCCAGGGGUGGGAAUUUUUUUUUAAUAUGUGUCAUGAAUAAAGUUGUUUUUGCAA; value = 0.327
Oligonucleotide = ACCAUGCAGGUGGGCAUCUUUGGGAAGUGGGUCAAGGGGGGGAUAGGGAGGGGGGUAACACUUUGGGAACAGGUGGUCCCAGGUCGUUUC; value = 0.921
Oligonucleotide = GUCCUGUGCUACACAUCGUAUGUACCGAAUCGGGGAAAGGGGAGGGGUUUUUUUGGGGAAAGUAUUAUGUUACGCCGUUCGGAUCUGCAC; value = 0.428
Oligonucleotide = UAACUUUAGAGGACGAUCUGAUGGAUAUGGCAGUGGACGUGGAUUUGGGGAUGGCUAUAAUGGGUAUGGAGGAGGACCUGGAGGUGGCAA; value = 0.466
Oligonucleotide = UCCUGUGCUACACAUCGUAUGUACCGAAUCGGGCCCCCGGGGCCCCCGGGGCCCCCGGGAAAGUAUUAUGUUACGCCGUUCGGAUCUGCA; value = -0.895
Oligonucleotide = CCUGUGCUACACAUCGUAUGUACCGAAUCGGGCCCCCCGGCCCCCCGGGGCCCCCCGGGGAAAGUAUUAUGUUACGCCGUUCGGAUCUGC; value = -0.334

Series 2
Target: Interferon regulatory factor 5, full length, phosphomimetic (IRF5, Homo sapiens, UniProt Q13568-2, residues 1-514, K96S/S451D/S453D/S456D/S462D)
Technique: protein-binding microarray
Molecule type: double-stranded DNA, one strand shown
Matrix: in vitro
Concentration: 250 nM
Notes: 60-bp whole probe
Added: salmon DNA 0.4 mg/ml
Reference: random background probes
Direction: higher = stronger binding
Measurement: log fluorescence
All sequences stand within: GCCTAGCAC … GTCTTGATTCGCTTGACGCTGCTG
Oligonucleotide = TTAGTTCTGAGTCTTCCCTTGTGCTAG; value = 0.452 z-score
Oligonucleotide = CTTTCTTTCCATACTGCAAGGTGCTAG; value = 2.7 z-score
Oligonucleotide = TAAGGTCTCCTACTGCTTTAGTGCTAG; value = -0.292 z-score
Oligonucleotide = TTAGATGTCAGTCTCGATTAGTGCTAG; value = 0.868 z-score
Oligonucleotide = GACGAACTGGGGACAGGAGACGTGCTA; value = -0.274 z-score
Oligonucleotide = GACGGTATCCTTTTTCTGACGTGCTAG; value = 0.547 z-score
Oligonucleotide = GACGGACTGCTACTGCAGACGTGCTAG; value = -0.697 z-score
Oligonucleotide = CTGTTTTTGCTTTCTTTTTGGTGCTAG; value = 2.69 z-score

Series 3
Target: Sal-like protein 4, full length isoform A (SALL4, Homo sapiens, UniProt Q9UJQ4, residues 1-1053)
UniProt Q9UJQ4, sequence (whole entry, looked up): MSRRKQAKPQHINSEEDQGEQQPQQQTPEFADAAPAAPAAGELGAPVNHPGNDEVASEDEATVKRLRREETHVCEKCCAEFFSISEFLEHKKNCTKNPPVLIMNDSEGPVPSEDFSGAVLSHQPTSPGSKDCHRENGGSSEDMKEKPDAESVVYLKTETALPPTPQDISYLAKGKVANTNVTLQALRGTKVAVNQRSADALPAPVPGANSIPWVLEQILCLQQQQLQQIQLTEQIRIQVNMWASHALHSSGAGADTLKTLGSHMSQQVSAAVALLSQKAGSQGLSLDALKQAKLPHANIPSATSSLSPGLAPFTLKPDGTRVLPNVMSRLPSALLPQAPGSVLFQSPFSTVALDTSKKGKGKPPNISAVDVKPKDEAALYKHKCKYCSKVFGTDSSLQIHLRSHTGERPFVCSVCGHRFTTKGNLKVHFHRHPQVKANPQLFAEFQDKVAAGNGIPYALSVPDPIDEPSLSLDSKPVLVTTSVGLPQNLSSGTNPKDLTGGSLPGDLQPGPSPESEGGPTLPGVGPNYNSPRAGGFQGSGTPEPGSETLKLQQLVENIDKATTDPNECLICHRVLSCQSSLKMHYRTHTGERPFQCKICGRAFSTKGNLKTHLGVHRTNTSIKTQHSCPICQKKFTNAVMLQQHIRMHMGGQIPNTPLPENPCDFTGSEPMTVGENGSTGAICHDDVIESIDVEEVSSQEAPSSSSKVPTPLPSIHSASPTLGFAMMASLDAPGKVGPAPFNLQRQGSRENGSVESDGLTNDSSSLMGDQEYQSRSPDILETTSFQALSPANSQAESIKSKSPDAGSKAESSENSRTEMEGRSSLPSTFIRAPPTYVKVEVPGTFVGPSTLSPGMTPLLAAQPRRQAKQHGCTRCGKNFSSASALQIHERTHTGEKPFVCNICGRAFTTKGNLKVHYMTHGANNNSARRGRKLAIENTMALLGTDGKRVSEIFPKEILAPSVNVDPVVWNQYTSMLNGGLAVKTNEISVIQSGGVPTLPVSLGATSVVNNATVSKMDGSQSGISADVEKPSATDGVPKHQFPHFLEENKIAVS
Technique: universal PBM
Molecule type: double-stranded DNA, one strand shown
Matrix: in vitro
Concentration: 600 nM
Notes: 8-mer, flanks averaged, mean of replicates
Direction: higher = stronger binding
Measurement: E-score
Oligonucleotide = AGATAGCA; value = 0.102
Oligonucleotide = CAAACAGG; value = -0.0695
Oligonucleotide = ACATTGGT; value = 0.0166
Oligonucleotide = GCCTTGAC; value = -0.0851
Oligonucleotide = AAACTAAC; value = 0.164
Oligonucleotide = ACGCACGT; value = -0.0738
Oligonucleotide = GACCCGAA; value = -0.19

Other studies, line by line
Molecule = PhoQ, residues 284 288 289 292 302 303 TAVSDG; target = PhoP, residues 12 14 15 18 19 SPWRL (Escherichia coli, UniProt P23836); test = Sort-seq, measured: YFP reporter; system = E. coli; conditions = PhoQ-PhoP variant library, added: 10 µM Mg2+; scale = reference: high Mg2+ state, higher = stronger signaling; measurement = fold induction; value = 0.879

For quick reference, copied from above (series 2):
Oligonucleotide = CTTTCTTTCCATACTGCAAGGTGCTAG; value = 2.7 z-score
Oligonucleotide = TAAGGTCTCCTACTGCTTTAGTGCTAG; value = -0.292 z-score
